Results collected from several papers.
Parts stem from different laboratories: compare values within a part only. Values joined by “and” are separate records of one study, mostly repeats; a detail may differ.
Sequence of UniProt P51955 (whole entry, looked up): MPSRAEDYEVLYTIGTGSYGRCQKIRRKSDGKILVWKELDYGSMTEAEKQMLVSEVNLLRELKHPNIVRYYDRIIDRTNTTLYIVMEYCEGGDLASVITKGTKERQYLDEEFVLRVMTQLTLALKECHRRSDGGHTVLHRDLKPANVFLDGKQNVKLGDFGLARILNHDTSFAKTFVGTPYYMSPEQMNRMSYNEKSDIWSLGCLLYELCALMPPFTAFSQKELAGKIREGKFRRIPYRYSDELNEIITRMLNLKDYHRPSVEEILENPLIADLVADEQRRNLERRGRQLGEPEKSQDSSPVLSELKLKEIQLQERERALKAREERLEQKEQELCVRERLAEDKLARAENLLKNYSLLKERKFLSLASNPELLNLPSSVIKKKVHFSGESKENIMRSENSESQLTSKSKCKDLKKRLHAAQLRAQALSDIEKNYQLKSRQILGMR
Sequence of UniProt Q6DT37 (whole entry, looked up): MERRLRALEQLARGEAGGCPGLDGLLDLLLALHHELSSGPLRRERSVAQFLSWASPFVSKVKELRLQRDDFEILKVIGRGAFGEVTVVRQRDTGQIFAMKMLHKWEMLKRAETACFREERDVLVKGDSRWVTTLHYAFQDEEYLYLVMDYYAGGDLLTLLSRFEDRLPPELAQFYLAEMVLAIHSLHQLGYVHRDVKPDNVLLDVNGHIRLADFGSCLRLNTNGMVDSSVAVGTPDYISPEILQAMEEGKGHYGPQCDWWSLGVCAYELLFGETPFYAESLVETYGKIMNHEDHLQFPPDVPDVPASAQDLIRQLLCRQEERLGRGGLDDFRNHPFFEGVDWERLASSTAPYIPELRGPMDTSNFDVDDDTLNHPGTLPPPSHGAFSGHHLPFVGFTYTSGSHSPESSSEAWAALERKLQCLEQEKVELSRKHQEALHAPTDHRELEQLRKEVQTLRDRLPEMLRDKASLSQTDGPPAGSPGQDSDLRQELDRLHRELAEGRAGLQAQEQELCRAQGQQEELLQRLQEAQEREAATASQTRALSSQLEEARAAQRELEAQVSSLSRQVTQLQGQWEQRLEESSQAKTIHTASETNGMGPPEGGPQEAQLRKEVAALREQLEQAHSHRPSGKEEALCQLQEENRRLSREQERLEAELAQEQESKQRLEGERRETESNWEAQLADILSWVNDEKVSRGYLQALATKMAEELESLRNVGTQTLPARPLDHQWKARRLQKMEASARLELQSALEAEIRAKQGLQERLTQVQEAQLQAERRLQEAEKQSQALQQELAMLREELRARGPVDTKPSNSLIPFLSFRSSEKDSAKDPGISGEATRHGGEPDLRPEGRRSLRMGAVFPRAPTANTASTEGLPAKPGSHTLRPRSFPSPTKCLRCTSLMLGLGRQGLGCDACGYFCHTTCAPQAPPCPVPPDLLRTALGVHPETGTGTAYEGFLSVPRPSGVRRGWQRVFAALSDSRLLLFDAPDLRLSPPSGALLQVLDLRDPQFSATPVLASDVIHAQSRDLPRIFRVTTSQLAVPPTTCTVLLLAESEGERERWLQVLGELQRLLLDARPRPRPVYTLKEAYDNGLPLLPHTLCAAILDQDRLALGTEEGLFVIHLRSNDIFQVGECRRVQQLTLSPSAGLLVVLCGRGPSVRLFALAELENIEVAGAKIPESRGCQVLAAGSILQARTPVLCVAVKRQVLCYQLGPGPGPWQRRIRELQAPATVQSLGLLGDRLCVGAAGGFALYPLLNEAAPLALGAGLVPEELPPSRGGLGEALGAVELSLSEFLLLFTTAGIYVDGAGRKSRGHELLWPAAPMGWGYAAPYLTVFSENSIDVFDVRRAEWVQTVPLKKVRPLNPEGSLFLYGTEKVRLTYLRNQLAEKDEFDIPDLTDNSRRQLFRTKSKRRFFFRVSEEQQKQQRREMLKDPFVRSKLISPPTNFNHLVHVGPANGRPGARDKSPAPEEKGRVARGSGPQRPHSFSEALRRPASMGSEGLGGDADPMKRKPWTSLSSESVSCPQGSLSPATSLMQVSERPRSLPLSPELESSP
Sequence of UniProt Q13555 (whole entry, looked up): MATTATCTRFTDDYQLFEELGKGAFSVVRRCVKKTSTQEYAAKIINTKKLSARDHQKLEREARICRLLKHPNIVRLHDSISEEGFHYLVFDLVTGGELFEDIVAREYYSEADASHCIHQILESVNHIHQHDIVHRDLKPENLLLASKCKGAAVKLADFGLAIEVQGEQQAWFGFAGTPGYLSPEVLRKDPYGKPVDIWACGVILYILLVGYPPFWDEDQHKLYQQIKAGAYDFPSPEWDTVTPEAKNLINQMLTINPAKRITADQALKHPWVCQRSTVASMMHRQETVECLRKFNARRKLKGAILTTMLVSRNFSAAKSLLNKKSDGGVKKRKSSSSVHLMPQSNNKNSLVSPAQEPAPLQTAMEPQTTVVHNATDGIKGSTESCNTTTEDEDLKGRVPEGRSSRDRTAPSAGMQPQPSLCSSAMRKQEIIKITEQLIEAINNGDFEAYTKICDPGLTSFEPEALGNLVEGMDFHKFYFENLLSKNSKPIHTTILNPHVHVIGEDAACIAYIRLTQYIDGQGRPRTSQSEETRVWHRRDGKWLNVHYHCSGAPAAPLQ
Sequence of UniProt Q9P0L2 (whole entry, looked up): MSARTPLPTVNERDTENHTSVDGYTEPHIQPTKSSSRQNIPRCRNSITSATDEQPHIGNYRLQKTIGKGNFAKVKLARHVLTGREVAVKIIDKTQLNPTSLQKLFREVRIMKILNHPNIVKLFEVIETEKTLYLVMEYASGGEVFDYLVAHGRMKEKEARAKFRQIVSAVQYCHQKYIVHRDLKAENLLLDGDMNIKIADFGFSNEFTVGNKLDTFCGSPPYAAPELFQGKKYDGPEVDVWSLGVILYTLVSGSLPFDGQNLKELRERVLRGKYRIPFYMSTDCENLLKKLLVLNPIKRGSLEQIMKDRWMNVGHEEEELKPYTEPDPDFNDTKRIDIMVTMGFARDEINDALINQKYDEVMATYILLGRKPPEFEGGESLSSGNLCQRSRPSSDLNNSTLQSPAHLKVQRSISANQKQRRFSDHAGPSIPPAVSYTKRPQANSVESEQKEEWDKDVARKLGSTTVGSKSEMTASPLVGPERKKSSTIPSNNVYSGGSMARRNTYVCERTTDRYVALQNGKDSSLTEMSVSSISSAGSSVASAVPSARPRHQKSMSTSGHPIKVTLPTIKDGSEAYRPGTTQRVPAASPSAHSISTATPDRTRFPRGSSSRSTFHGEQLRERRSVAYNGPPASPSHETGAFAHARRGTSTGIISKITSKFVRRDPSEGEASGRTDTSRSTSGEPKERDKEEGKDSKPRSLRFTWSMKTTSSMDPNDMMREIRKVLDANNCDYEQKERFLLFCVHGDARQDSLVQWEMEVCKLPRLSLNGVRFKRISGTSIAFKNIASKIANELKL
Sequence of UniProt Q9NY57 (whole entry, looked up): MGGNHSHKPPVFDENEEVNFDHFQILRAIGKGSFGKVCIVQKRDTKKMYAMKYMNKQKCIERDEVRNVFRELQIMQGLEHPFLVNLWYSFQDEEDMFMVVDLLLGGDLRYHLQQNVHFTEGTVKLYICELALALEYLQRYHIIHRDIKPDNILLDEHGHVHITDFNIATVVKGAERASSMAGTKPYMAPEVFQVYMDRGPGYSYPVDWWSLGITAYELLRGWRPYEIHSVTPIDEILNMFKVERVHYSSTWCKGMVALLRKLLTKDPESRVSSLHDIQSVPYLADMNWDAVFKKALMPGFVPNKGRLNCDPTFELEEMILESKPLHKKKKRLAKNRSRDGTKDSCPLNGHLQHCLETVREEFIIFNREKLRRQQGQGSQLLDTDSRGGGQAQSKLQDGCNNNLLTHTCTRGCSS

Block 1 — cell line: A-375; tested at: 100 µM; time: 18 h
Compound	viability [%]
Nc1nc2c(ncn2COCCO)c(=O)[nH]1	97
CC1=C(C(=O)O)N2C(=O)[C@@H](NC(=O)[C@H](N)c3ccc(O)cc3)[C@H]2SC1	98.2
CC[C@]1(O)C[C@@H]2CN(CCc3c([nH]c4ccccc34)[C@@](C(=O)OC)(c3cc4c(cc3OC)N(C)[C@H]3[C@@](O)(C(=O)OC)[C@H](OC(C)=O)[C@]5(CC)C=CCN6CC[C@]43[C@@H]65)C2)C1	22
CC[C@]1(O)C[C@H]2CN(CCc3c([nH]c4ccccc34)[C@@](C(=O)OC)(c3cc4c(cc3OC)N(C=O)[C@H]3[C@@](O)(C(=O)OC)[C@H](OC(C)=O)[C@]5(CC)C=CCN6CC[C@]43[C@@H]65)C2)C1	45.2

Block 2 — method: Incucyte 3D growth; tested at: 30 µM; reading: higher = more growth
Structure (SMILES): CC(C)(C(=O)O)[C@H](NC(=O)Cc1cccc(I)c1)c1ccc2oc(=O)[nH]c2c1
cell line	setting	spheroid area
MEL-JUSO	24.52 h	9.21e+06 a.u. and 5.88e+06 a.u. and 9.3e+06 a.u. and 9.65e+06 a.u. and 9.11e+06 a.u. and 1.21e+07 a.u.
NCI-H358	186 h	7.87e+06 a.u. and 6.73e+06 a.u. and 7.12e+06 a.u. and 7.25e+06 a.u. and 7.38e+06 a.u.
NCI-H1437	90 h	3e+07 a.u. and 2.94e+07 a.u. and 2.95e+07 a.u. and 2.5e+07 a.u. and 2.4e+07 a.u.

Block 3 — tested at: 1 µM
Compound: CN([C@@H]1CCc2c(CC(=O)O)c3ccccc3n2C1)S(=O)(=O)c1ccc(F)cc1
target	assay	remaining binding
Serine/threonine-protein kinase MARK1 (MARK1, Homo sapiens, UniProt Q9P0L2)	cell-free assay, competition with immobilised ligand	100%
Serine/threonine-protein kinase MRCK gamma (CDC42BPG, Homo sapiens, UniProt Q6DT37)	competition binding	100%
Serine/threonine-protein kinase 32B (STK32B, Homo sapiens, UniProt Q9NY57)	cell-free assay, competition with immobilised ligand	100%
Calcium/calmodulin-dependent protein kinase type II subunit gamma (CAMK2G, Homo sapiens, UniProt Q13555)	cell-free assay, competition with immobilised ligand	100%
Serine/threonine-protein kinase Nek2 (NEK2, Homo sapiens, UniProt P51955)	cell-free assay, competition with immobilised ligand	100%

Block 4 — effect on: enzyme activity; action: inhibitor; tested at: 0.5 µM; baseline: control
Target: Mitogen-activated protein kinase kinase kinase 14 (MAP3K14, Homo sapiens, UniProt Q99558)
Sequence of UniProt Q99558 (whole entry, looked up): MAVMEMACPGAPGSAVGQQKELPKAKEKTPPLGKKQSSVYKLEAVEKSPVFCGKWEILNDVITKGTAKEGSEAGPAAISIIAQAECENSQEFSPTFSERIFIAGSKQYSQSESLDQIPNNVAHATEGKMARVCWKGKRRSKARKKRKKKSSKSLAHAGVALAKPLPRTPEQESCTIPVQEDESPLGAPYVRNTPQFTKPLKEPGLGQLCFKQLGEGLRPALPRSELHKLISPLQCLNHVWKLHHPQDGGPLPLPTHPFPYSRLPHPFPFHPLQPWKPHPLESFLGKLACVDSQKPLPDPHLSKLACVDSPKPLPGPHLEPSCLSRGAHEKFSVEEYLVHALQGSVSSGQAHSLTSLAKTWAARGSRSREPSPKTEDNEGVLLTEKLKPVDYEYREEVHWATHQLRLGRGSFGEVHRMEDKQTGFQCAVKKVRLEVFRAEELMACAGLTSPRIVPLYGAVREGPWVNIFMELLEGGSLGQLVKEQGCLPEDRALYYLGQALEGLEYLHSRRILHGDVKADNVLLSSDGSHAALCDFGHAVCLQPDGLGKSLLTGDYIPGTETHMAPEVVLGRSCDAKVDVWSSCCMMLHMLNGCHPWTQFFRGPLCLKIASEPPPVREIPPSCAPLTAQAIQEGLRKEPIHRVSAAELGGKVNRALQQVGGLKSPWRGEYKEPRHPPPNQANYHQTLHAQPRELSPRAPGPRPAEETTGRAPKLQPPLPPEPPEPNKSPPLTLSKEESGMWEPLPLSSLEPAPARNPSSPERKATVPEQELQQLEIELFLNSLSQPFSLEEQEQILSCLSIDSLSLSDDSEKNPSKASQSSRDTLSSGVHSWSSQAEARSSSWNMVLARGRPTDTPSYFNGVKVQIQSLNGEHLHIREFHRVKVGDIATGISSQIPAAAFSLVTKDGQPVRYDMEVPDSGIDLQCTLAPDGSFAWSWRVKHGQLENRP
SMILES	remaining activity
Cc1ccc(NC(=O)c2ccc(CN3CCN(C)CC3)cc2)cc1Nc1nc(-c2cccnc2)cs1	91%
Cn1c2ccccc2c2c3c(c4c5ccccc5n(CCC#N)c4c21)CNC3=O	84.1%
CCOC(=O)c1c(C)[nH]c(/C=C2\C(=O)Nc3ccccc32)c1C	118%
Cc1ccc(Nc2nccc(N(C)c3ccc4c(C)n(C)nc4c3)n2)cc1S(N)(=O)=O	104%
Oc1ccc(-c2nc(-c3ccncc3)c(-c3ccc(F)cc3)[nH]2)cc1	115%
CN(C)c1ccc(C=C2C(=O)Nc3ccccc32)cc1	67.7%
COc1cc2ncnc(Nc3ccc(Oc4ccccc4)cc3)c2cc1OC	93%
O=C1NC(=O)C(c2cn(CCCO)c3ncccc23)=C1c1cnccn1	78.1%
O=C1NC(=O)C(c2cn(CCCn3ccnc3)c3ccccc23)=C1Nc1ccccc1	96.1%
O=S(=O)(c1cccc2cnccc12)N1CCCNCC1	97.7%
O=C(CCCc1ccc(-c2ccccc2F)cc1)Nc1ccc(O)cc1	99.2%

Some of these lines once more (block 4):
SMILES	remaining activity
Cn1c2ccccc2c2c3c(c4c5ccccc5n(CCC#N)c4c21)CNC3=O	84.1%
CCOC(=O)c1c(C)[nH]c(/C=C2\C(=O)Nc3ccccc32)c1C	118%
Cc1ccc(Nc2nccc(N(C)c3ccc4c(C)n(C)nc4c3)n2)cc1S(N)(=O)=O	104%
